Assay results gathered from unrelated publications.
Lines come from different studies, so protocols differ. ± gives the spread as reported. Values after ≈ are worked out from the molar mass of the structure shown.

`O=C(NCc1ccccc1)N1CCCN2CCC(c3ccc(C#Cc4ccccc4)cc3)C2C1` (stereo not drawn) gave an EC90 of 4630 ± 80 nM (Toxoplasma gondii; parasite growth; HFF, RH type I luciferase).
The logit mortality of `CCCCCc1ccc(C(=O)N2c3ccc(F)cc3[C@@H](Nc3ccccc3)C[C@H]2C)cc1` is reported as 0 (Aedes albopictus; 1 µM, second-instar larvae).
For `CCCCn1c2ccccc2c2ccnc(-c3ccc(OC)cc3)c21`, the viability was 76.3 ± 1.82% (Echinococcus granulosus; eosin staining; sensu stricto protoscoleces; 40 µM, 48 h, 10% fetal bovine serum).
For `COc1ccc(NC(=O)N2CCCN3CCC(c4ccc(C#CC5CCOCC5)cc4)C3C2)cc1` (stereo not drawn), the EC90 was 3070 ± 330 nM (Toxoplasma gondii; parasite growth; HFF, RH type I luciferase).
`O=C(Nc1ccccc1Nc1ccccc1)c1cccnc1C(F)(F)F` has an inhibition of 47.1% (Sclerotinia sclerotiorum; microbial growth; 50 µg/mL).
The EC50 of `O=C(N[C@@H](CC1CCCCC1)C(=O)N[C@@H](C[C@H]1CCNC1=O)C(=O)C(=O)NC1CC1)OCc1cccc(Cl)c1` is reported as 40 ± 20 nM (Enterovirus D68; viral replication; WI-38; 37 °C).
Under growth inhibition, `O=C(Nc1ccccc1)N1CCCN2CCC(c3ccc(C#Cc4cncnc4)cc3)C2C1` (stereo not drawn) is recorded as “inactive” (Toxoplasma gondii; HFF, RH (type I); concentration not given).
With `C[C@@H]1C[C@H](Nc2ccccc2)c2cc(F)ccc2N1C(=O)c1ccc(F)cc1` the logit mortality was -0.44 (Aedes albopictus; 1 µM, second-instar larvae).
With `C#CCN1CCc2c(n(C(=C)C(=O)OC)c3ccccc23)C(C(=O)OC)C1` (stereo not drawn) the selectivity index was 9.48 (hepatitis B virus; HBsAg secretion; HepAD38; reference: CC50 over IC50).
`O=C(N[C@@H](CC1CCCCC1)C(=O)N[C@@H](C[C@H]1CCNC1=O)C(=O)C(=O)NC1CC1)OCc1ccccc1` gave an EC50 of 50 ± 30 nM (human rhinovirus 51; viral replication; WI-38; 37 °C).
`CC(=O)OC[C@H]1O[C@@H]([Se]Cc2ccccc2C(F)(F)F)[C@H](OC(C)=O)[C@@H](OC(C)=O)[C@@H]1OC(C)=O` gave a viability of 92.5 ± 10.3% (Trypanosoma brucei brucei; bloodstream form; 5 µM, 24 h, 1 % DMSO).
The EC50 of `CC(C)C[C@H](NC(=O)OCc1ccccc1)C(=O)N[C@H](C=O)C[C@H]1CCNC1=O` is reported as 380 ± 250 nM (Enterovirus D68; viral replication; WI-38; 37 °C).
For `Cc1ccc(S(=O)(=O)Nn2c3c(cc(-c4nc5ccccc5s4)c2=O)CCCC3)cc1`, the selectivity index was 2.66 (Coxsackievirus B4; viral replication, plaque reduction; BGM cells; reference: CC50 over IC50).
For `Cc1ncc([N+](=O)[O-])n1CCOCc1nnc(SCC(=O)c2ccc(O)cc2)o1`, “inhibition zone diameter” read 10 to 15 mm (Enterobacter cloacae; DMSO; 60 µg/mL, 24 h, 37 °C).
For `CCCc1ccc(C(=O)N2c3ccc(F)cc3[C@@H](Nc3ccccc3)C[C@H]2C)cc1`, the logit mortality was 0.64 (Aedes albopictus; 1 µM, second-instar larvae).
Under “fold activity enhancement”, `CC[P+](CC)(CC)[Au-][S][C@@H]1O[C@H](COC(C)=O)[C@@H](O[C@H]2O[C@H](COC(C)=O)[C@@H](OC(C)=O)[C@H](OC(C)=O)[C@H]2OC(C)=O)[C@H](OC(C)=O)[C@H]1OC(C)=O` is recorded as 2 to 4 (Enterobacter cloacae; NCTC 13405; concentration not given; reference: auranofin).
For `CC(C)C[C@H](NC(=O)CNC(=O)c1cc(Cl)ccc1Cl)B(O)O`, parasite replication read “no effect” (Babesia divergens; erythrocyte culture; 200 nM, 48 h).
For `COc1ccc(-c2nc(-c3ccccc3OC)[nH]c2-c2ccc(OC)cc2)cc1`, the worm killing was 0% (Schistosoma mansoni; female worms; 5 µM).
Under “HBV DNA remaining”, `Cc1ncnc(C)c1-c1ccc(C(=O)N2CC[C@H](C(=O)Nc3cc(F)c(F)c(F)c3)C2)[nH]1` is recorded as 45% (hepatitis B virus; item: intracellular HBV DNA; HepG2.2.15; 0.1 µM, 144 h; reference: vehicle).
The EC90 of `Cc1ccc(NC(=O)N2CCCN3CCC(c4ccc(C#CC5CCSCC5)cc4)C3C2)cc1` (stereo not drawn) is reported as 2100 ± 1100 nM (Toxoplasma gondii; parasite growth; HFF, RH type I luciferase).
Under “inhibition zone diameter”, `CC(=O)[O-].O.O.O.O.[Mn+2].[O-]c1ccc(Br)cc1C=NCCN1CCOCC1` is recorded as 17 mm (Bacillus cereus; 20 µL of 100 µM per disc).
The EC90 of `COc1ccc(NC(=O)N2CCCN3CCC(c4ccc(C#Cc5ccncc5)cc4)C3C2)cc1` (stereo not drawn) is reported as 9690 nM (Toxoplasma gondii; parasite growth; HFF, RH type I luciferase).
For `CC(C)C[C@H](NC(=O)OCc1ccccc1)C(=O)N[C@@H](C[C@H]1CCNC1=O)C(=O)C(=O)NC1CC1`, the EC50 was 80 ± 20 nM (Enterovirus D68; viral replication; WI-38; 37 °C).
For `O=C(CCNC(=O)c1ccsc1)Nc1cccc(Oc2ccc(Cl)cc2)c1`, “density of subviral particle peak” read 1.14 to 1.16 g/mL (hepatitis B virus; sucrose density gradient, item: HBsAg; HepG2.2.15.7, culture supernatant).
`Cc1ccc(N(CCc2nnc(S)o2)S(=O)(=O)c2ccccc2)cc1` has a relative inhibition of 127% (Colletotrichum capsici; cup plate method; 100 µg/mL; reference: fluconazole).
`COc1ccc(NC(=O)N2CCCN3CCC(c4ccc(C#CC(C)C)cc4)C3C2)cc1` (stereo not drawn) gave an EC90 of over 10000 nM (Toxoplasma gondii; parasite growth; HFF, RH type I luciferase).
The selectivity index of `C#CCN1CCc2c3n(c4ccccc24)C(=O)C(=C)CC3(C(=O)OC)C1` (stereo not drawn) is reported as 6.68 (hepatitis B virus; HBsAg secretion; HepAD38; reference: CC50 over IC50).
The viability of `CCCCn1c2ccccc2c2ccnc(-c3cc(OC)c(OC)c(OC)c3)c21` is reported as 80.2 ± 3.9% (Echinococcus granulosus; eosin staining; sensu stricto protoscoleces; 40 µM, 48 h, 10% fetal bovine serum).
`COc1cc(OC)c2c(c1)C(=O)c1cc3oc(=O)cc(-c4ccc(Cl)cc4)c3c(O)c1C2=O` — result for “zone of inhibition”: 10 mm (Bacillus cereus; MTCC 1306; 100 µg/disc).
Under growth inhibition, `CC(C)c1ccc(Cn2ccc([C@H](C)[C@](O)(Cn3cnnn3)c3ccc(F)cc3F)n2)cc1` is recorded as “inhibited” (Candida krusei; growth curve; 4946, YPD medium; 0.25 µg/mL).
For `Cc1cc(O)cc2c1C(=O)c1c(cc3oc(=O)cc(-c4ccccc4)c3c1O)C2=O`, “inhibition zone diameter” read 8 mm (Bacillus cereus; MTCC 1306; 100 µg/disc).
`N=C(NO)NN=Cc1nccc2ccccc12` gave a selectivity index of 2.5 (human mastadenovirus C; plaque reduction; A549, McEwen; reference: TC50 over IC50).
`O=C[C@H](C[C@H]1CCNC1=O)NC(=O)[C@H](Cc1ccccc1)NC(=O)OCc1ccccc1` has an EC50 of 550 ± 210 nM (human rhinovirus 51; viral replication; WI-38; 37 °C).
The IC50 of `CCCCCC1CC2CCCC3CC(C)N=C(N1)N32` (stereo not drawn) is reported as 8980 nM (Candida krusei; fungal growth; ATCC 6258).
The inhibition of `C#CCN1CCC23C(=C(C(=O)OC)CC(C(=O)OC)C12)Nc1ccccc13` (stereo not drawn) is reported as about 20% (hepatitis B virus; cccDNA level, qPCR; HuH7-NTCP; 5 µM).
With `Fc1ccc2c(c1)c1nc3ccc(Br)cc3c-1cn2Cc1cn(-c2ccccc2I)nn1` the fold change was 5.77 (Giardia duodenalis trophozoites; UHPLC-Q-TOF-MS, item: 3-methylbutyl pentadecanoate; IC50, 0.2617 h; reference: 0.25% DMSO).
The logit mortality of `Cc1ccc(C(=O)N2c3ccc(F)cc3[C@@H](Nc3ccccc3)C[C@H]2C)cc1` is reported as 0.7 (Aedes albopictus; 1 µM, second-instar larvae).
`Cc1c2c(cc3oc(=O)cc(-c4ccc(Cl)cc4)c13)C(=O)c1cccc(O)c1C2=O`: “zone of inhibition” 8 mm (Bacillus cereus; MTCC 1306; 100 µg/disc).
`O=C(Nc1ccccc1)N1CCCN2CCC(c3ccc(C#Cc4cccnc4)cc3)C2C1` (stereo not drawn) has an EC90 of 3870 nM (Toxoplasma gondii; parasite growth; HFF, RH type I luciferase).
`O=S(=O)(c1ccccc1)N(CCc1nnc(S)o1)c1ccccc1` has a relative inhibition of 100% (Colletotrichum capsici; cup plate method; 100 µg/mL; reference: fluconazole).
With `COC1C=COC2(C)Oc3c(C)c(O)c4c(c3C2=O)C2=NC3(CCN(CC(C)C)CC3)NC2=C(NC(=O)C(C)=CC=CC(C)C(O)C(C)C(O)C(C)C(OC(=O)Nc2cccnn2)C1C)C4=O` (stereo not drawn) the MIC50 was 0.13 µM (≈ 0.12 µg/mL) (Mycobacteroides abscessus; 76 clinical isolates; 3 subspecies).
Under “HBV DNA remaining”, `Cc1ncncc1-c1ccc(C(=O)N2CC[C@H](C(=O)Nc3cc(F)c(F)c(F)c3)C2)[nH]1` is recorded as 39% (hepatitis B virus; item: intracellular HBV DNA; HepG2.2.15; 1 µM, 144 h; reference: vehicle).
For `CC(=O)N[C@@H]1[C@@H](OC(C)=O)[C@H](OC(C)=O)[C@@H](COC(C)=O)O[C@H]1[Se]C(=O)c1ccc([N+](=O)[O-])cc1`, the viability was 86.1 ± 4.7% (Trypanosoma brucei brucei; bloodstream form; 5 µM, 24 h, 1 % DMSO).
With `CC1(CCCCCCCCCCOCCCOP(=O)(O)CO[C@H](CO)Cn2ccc(N)nc2=O)COC1` the selectivity index was over 714 (human betaherpesvirus 5; cytopathic effect; AD169; reference: CC50 over EC50).
The selectivity index of `C#CCN1CCc2c3n(c4ccccc24)C(=O)C(=C)C3(C(=O)OC)C1` (stereo not drawn) is reported as 5.52 (hepatitis B virus; HBsAg secretion; HepAD38; reference: CC50 over IC50).
The logit mortality of `C[C@@H]1C[C@H](Nc2ccccc2)c2cc(F)ccc2N1C(=O)c1ccc([N+](=O)[O-])cc1` is reported as -0.28 (Aedes albopictus; 1 µM, second-instar larvae).
`CN[C@H](CC(C)C)C(=O)N[C@H]1C(=O)N[C@@H](CC(N)=O)C(=O)N[C@H]2C(=O)N[C@H]3C(=O)N[C@H](C(=O)N[C@H](C(=O)O)c4cc(O)cc(O)c4-c4cc3ccc4O)[C@H](O)c3ccc(c(Cl)c3)Oc3cc2cc(c3O[C@@H]2O[C@H](CO)[C@@H](O)[C@H](O)[C@H]2O[C@H]2C[C@](C)(NCc3ccc(C(=O)OCCCCCCN(Cc4ccccn4)Cc4ccccn4)cc3)[C@H](O)[C@H](C)O2)Oc2ccc(cc2Cl)[C@H]1O` has a regulation factor of 8.2 ± 2.5 (Bacillus subtilis; protein synthesis, item: PspA; 168; concentration not given, 10 min, at peak effective concentration; reference: untreated).
`COc1ccc(NC(=O)N2CCCN3CCC(c4ccc(C#CC5CC5)cc4)C3C2)cc1` (stereo not drawn): growth inhibition “inactive” (Toxoplasma gondii; HFF, RH (type I); concentration not given).
`COc1ncccc1C(=O)Nc1ccccc1Nc1ccccc1` has an inhibition of 0% (Sclerotinia sclerotiorum; microbial growth; 50 µg/mL).
`O=C[C@H](C[C@H]1CCNC1=O)NC(=O)[C@H](CC1CCCCC1)NC(=O)OCc1ccccc1` has an EC50 of 60 ± 10 nM (Enterovirus D68; viral replication; WI-38; 37 °C).
With `CCN(CC)CC#CCNc1ccnc2cc(Cl)ccc12` the IC50 was 68 nM (Plasmodium falciparum; parasite growth; DD2; blood stage).
`COC(=O)/C=C/c1ccc(OCCNS(C)(=O)=O)c(OC)c1` gave a curative activity of 50.3 ± 1.9% (tobacco mosaic virus; half-leaf method; tobacco; 500 µg/mL).
With `O=C(Nc1ccc2c(c1)CN(c1ccccc1)C2=O)N1CC[C@H](O)C1` the IC50 was over 64000 nM (Trypanosoma brucei brucei; parasite growth, resazurin; Squib 427; 3 d).
`Oc1c(Br)cc(Br)c2nc3c(C(F)(F)F)cc(C(F)(F)F)cc3nc12` has an MBC of 0.59 µM (≈ 0.289 µg/mL) (Staphylococcus aureus; microbial killing; 129; clinical isolate).
`COc1ccc(C(=O)CSc2nnc(COCCn3c([N+](=O)[O-])cnc3C)o2)cc1F` — result for “inhibition zone diameter”: at least 20 mm (Enterobacter cloacae; DMSO; 60 µg/mL, 24 h, 37 °C).
`N=C(NO)NN=Cc1cnc2cc(C(F)(F)F)ccc2c1O` — result for IC50: “inactive” (Herpes simplex virus 1; viral replication, plaque reduction; Vero, McKrae; 4 days).
`Cc1cc(N2CCC(C#N)(C3(C)CC3)C2=O)cc(C(=O)NCc2cc(F)cc(-c3cnn(C)c3)c2)n1` (racemic) has an IC50 of 10 nM (Plasmodium falciparum; intraerythrocytic growth, DAPI staining; 3D7; 72 h).

Excerpt of the above:
The inhibition of `C#CCN1CCC23C(=C(C(=O)OC)CC(C(=O)OC)C12)Nc1ccccc13` (stereo not drawn) is reported as about 20% (hepatitis B virus; cccDNA level, qPCR; HuH7-NTCP; 5 µM).
For `O=C(CCNC(=O)c1ccsc1)Nc1cccc(Oc2ccc(Cl)cc2)c1`, “density of subviral particle peak” read 1.14 to 1.16 g/mL (hepatitis B virus; sucrose density gradient, item: HBsAg; HepG2.2.15.7, culture supernatant).
With `COC1C=COC2(C)Oc3c(C)c(O)c4c(c3C2=O)C2=NC3(CCN(CC(C)C)CC3)NC2=C(NC(=O)C(C)=CC=CC(C)C(O)C(C)C(O)C(C)C(OC(=O)Nc2cccnn2)C1C)C4=O` (stereo not drawn) the MIC50 was 0.13 µM (≈ 0.12 µg/mL) (Mycobacteroides abscessus; 76 clinical isolates; 3 subspecies).
The viability of `CCCCn1c2ccccc2c2ccnc(-c3cc(OC)c(OC)c(OC)c3)c21` is reported as 80.2 ± 3.9% (Echinococcus granulosus; eosin staining; sensu stricto protoscoleces; 40 µM, 48 h, 10% fetal bovine serum).
`O=C[C@H](C[C@H]1CCNC1=O)NC(=O)[C@H](Cc1ccccc1)NC(=O)OCc1ccccc1` has an EC50 of 550 ± 210 nM (human rhinovirus 51; viral replication; WI-38; 37 °C).
